Measured values gathered from unrelated publications.
A part holds a random share of what one study measured.

Set 1
Target: Sal-like protein 4, full length isoform A (SALL4, Homo sapiens, UniProt Q9UJQ4, residues 1-1053)
Sequence of UniProt Q9UJQ4 (whole entry, looked up): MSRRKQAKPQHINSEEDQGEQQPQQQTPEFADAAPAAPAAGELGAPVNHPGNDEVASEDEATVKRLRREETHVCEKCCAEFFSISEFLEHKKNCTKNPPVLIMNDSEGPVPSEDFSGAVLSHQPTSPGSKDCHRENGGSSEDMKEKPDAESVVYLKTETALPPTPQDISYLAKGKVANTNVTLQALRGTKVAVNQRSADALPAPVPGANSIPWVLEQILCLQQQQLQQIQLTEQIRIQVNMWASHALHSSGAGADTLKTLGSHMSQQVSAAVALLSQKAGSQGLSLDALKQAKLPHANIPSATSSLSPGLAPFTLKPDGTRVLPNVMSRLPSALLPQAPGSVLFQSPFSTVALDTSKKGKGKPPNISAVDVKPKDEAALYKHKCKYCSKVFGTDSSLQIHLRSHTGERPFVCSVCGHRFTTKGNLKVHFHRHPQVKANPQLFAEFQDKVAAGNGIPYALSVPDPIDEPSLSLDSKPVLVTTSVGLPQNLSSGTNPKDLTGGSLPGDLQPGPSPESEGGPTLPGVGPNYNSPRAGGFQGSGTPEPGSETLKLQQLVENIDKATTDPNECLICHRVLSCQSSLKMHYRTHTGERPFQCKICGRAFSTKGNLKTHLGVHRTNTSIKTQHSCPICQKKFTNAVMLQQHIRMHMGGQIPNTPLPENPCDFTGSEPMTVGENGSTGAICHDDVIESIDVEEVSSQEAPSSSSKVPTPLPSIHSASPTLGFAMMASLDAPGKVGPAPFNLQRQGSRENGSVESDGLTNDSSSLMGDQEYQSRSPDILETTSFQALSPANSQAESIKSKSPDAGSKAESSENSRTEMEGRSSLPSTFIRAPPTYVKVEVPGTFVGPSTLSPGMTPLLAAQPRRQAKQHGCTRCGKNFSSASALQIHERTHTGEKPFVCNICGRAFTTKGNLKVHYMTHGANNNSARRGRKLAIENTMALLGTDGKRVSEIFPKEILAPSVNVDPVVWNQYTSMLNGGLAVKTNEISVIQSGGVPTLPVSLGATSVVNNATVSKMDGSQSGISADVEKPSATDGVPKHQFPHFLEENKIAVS
Method: universal PBM
Molecule type: double-stranded DNA, one strand shown
Sample: in vitro
Tested at: 600 nM
Notes: 8-mer, flanks averaged, mean of replicates
Direction: higher = stronger binding
| Strand | E-score |
| --- | --- |
| TGCCACAA | 0.115 |
| TCGGTAGA | 0.0402 |
| AACTACAG | -0.0416 |
| ATAATTTC | 0.359 |
| GGGTGATA | 0.0759 |
| ACGGCCGC | -0.297 |
| CACTGTCG | -0.209 |
| CTGCCGGA | -0.165 |
| GCGGACAC | -0.336 |
| GTCCCAGA | -0.242 |
| CTTGATCC | -0.0919 |
| ACTTTCAT | 0.215 |
| GGAACTGA | -0.169 |
| CTGCCCCA | -0.224 |
| CGAGGCTA | -0.0945 |
| AGTGGTTA | 0.0874 |
| CTCGGAGC | -0.249 |
| GTGGCGTA | -0.0975 |
| TGAAACCA | 0.0559 |
| GTAAGCCA | -0.14 |
| AGGCAATA | 0.255 |
| TATACGAA | 0.248 |
| AGGGGGTC | -0.268 |
| CAACTGCG | -0.251 |
| CTTATTTA | 0.263 |

Set 2
Target: RNA binding protein fox-1 homolog 2, RRM domain, GST-SBP tag (RBFOX2, Homo sapiens, UniProt O43251-10, residues 100-194)
Method: RNA Bind-n-Seq
Molecule type: RNA
Sample: in vitro
Tested at: 365 nM
Notes: natural RNA segment, single round, ends assumed
Relative to: no-protein control
Direction: higher = stronger binding
Shared flanks, not repeated: GGGAGUUCUACAGUCCGACGAUC … UGGAAUUCUCGGGUGCCAA
| Strand | RBNS enrichment (R) |
| --- | --- |
| GGGUGGGUAUCCAUGAUGUGUGCCCAGCCUGGAUGUCAGCUGUGUCCUGUGGGGGCGUGUGUGUAACUGUAGUGUAGUCAGGUGCUCAACGGAGAAUAUAAACAAAAAAA | 0.922 |
| UUCACCUGCCCUUGGUGUGGACACACCCUCUCAUGCUACCAGCACCAUAAUCCAGUGGGGGUGACUGGGUGCACACCUGCCCAGGUGAACACAGCGGCUGCCAGUCUCCU | 0.415 |
| ACCACACCCCAAUGCCUUCCCAGCUUGGAAGCCAAGGCAGCUGAUGAAGGGAGCUCAGGAGAGCCGUCUUCAGCUGGGCUGGGGUUGGGGCUGCUGUGAGGAAAACCUGC | 0.399 |
| AUAUGGACUAUCCAUCGAACUUAACCUGUGUGGCUUCCAGCCCUCCCUUUACCAAAAGGGUCAAUGGACCUUUCUUUGCACUGUGUGACUUAAUCAACUAUAAAAGCUUA | 0.368 |
| AAGUGGAUUUAUCUAAAGUGGAACCAGCUGACAUUAUAUCUGUAUCGUAUGGAGAAUGAUGAAGGGCUCCACUGUUGUUAUAUGUCUUGUUUAUUUAAAACUUUUUUUAA | 1.03 |
| CCAAGCUCUCUAGAGCAUCUGGACACAUGUUAACAAGCAUAGCCACUGACCUUAACCACAACCAUUAGCCAGAAGAUACUGCAUGCUCCCUUGUGUCUGGAGUAUUCUGU | 0.62 |
| UUCACUUUCUCUAGCCCAUCAUUACCUGUGAACUGCAGUGGGGCAGUCAUGGCAAAUAGAAUUGGGCUGGGGUUUCUCCUUCUUUUCAGUUCAUUGUUUGCCCUGCUAGG | 1.29 |
| GGAAAAACUACAAAACAGACACAACAAACCAGAGCCAAGUUUGGGGAACGGGUGUGAGCAGCUCUGGCUCCUGACCCUCACCGGGUCCGCUUUGCCCCAGUGAAGAGACA | 0.553 |

Set 3
Target: Histone acetyltransferase KAT6A, winged helix 1, GST fusion (KAT6A, Homo sapiens, UniProt Q92794, residues 1-85)
Method: protein binding microarray
Molecule type: double-stranded DNA, one strand shown
Sample: in vitro
Tested at: not given
Notes: 8-mer, flanks averaged, mean of 2 arrays, mostly near background
Relative to: not given
Direction: higher = stronger binding
Construct (chain): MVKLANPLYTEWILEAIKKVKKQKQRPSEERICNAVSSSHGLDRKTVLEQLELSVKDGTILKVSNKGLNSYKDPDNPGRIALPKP
| Strand | E-score |
| --- | --- |
| ATACAAAC | -0.0677 |
| CTCTCGGA | -0.00446 |
| GAGAAAGA | -0.105 |
| CCTCACAA | -0.1 |
| AGCCGAAA | -0.124 |
| GGATTCCC | -0.0577 |
| AATCCCGT | 0.329 |
| ATCAAAAC | -0.033 |
| AATTGTCA | -0.126 |
| AGTTCCGC | 0.233 |
| AAGGTTGA | -0.114 |
| TGAATTAA | -0.0988 |
| CAGACTTA | -0.137 |
| GCTACCCA | -0.0422 |
| GATGATGA | -0.15 |
| GACTAAAC | -0.0504 |
| CACTACCC | -0.0119 |
| GTCGTTAA | -0.0981 |
| CGAGCATA | -0.113 |
| CGTTTCAA | 0.00852 |
| GCCGAACA | 0.0889 |
| AATCCGCA | 0.175 |

Set 4
Target: RING finger protein unkempt homolog, zinc fingers 1-6, GST-SBP tag (UNK, Homo sapiens, UniProt Q9C0B0, residues 30-357)
Sequence of UniProt Q9C0B0 (30-357, looked up): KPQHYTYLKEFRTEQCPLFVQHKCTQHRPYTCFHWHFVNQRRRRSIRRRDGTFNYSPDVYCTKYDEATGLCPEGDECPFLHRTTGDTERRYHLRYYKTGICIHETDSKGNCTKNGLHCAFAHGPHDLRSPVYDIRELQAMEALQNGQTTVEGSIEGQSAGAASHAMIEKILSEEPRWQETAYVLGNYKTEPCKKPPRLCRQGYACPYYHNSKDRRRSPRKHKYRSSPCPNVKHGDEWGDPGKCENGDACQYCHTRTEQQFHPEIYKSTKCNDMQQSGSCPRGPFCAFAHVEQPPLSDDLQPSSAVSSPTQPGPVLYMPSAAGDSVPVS
Method: RNA Bind-n-Seq
Molecule type: RNA
Sample: in vitro
Tested at: not given
Notes: RNA with constant flanks, human and mouse sites, ends assumed
Relative to: input RNA pool
Direction: higher = stronger binding
Shared flanks, not repeated: GGGAGUUCUACAGUCCGACGAUC … CAACAGAGGAUUGAGCAUCA
| Strand | bound/input enrichment [ratio] |
| --- | --- |
| UUUUCUGUAUUAAGCAAAUUCUAAUUUUUAUAUGUGGUUUUUGACUGUGGGGGUUGUCUCUAUAGUUUGUCUUACUGUUGAAAUGACAUGGUUAUCCAAAGCCUCUAGUGUCCGUCAGGU | 2.33 |
| GGAACUGAUAUAUUGACAGUUCUCACCGAAGUCCUUUUAUAAAGAAUUGCUACUCCAAUAUAUGGUCAGAUUAGAUGCAAGAAUAAAGCAGUUGUCCGAGUCUAAGUUUCUAUUUUAUUA | 0.843 |
| UUGGGCCUCAGCCCUGGCACCAGCUCUGGCCGCAACCCUGACCCUGGCUCUGGGCCGGGCACUCUGCCGGAUCCCAGCUCCAAACCCCUCCCCGGCUCCAGAUCCACCCCCAGCCCUACU | 0.274 |
| GUGACCCGGUCUCUGGACACUGUCAAUGGAAGGAUGGUUCUGCCCGUUGAUGAAAGCUUGACUGAGGCCUUGGGAAUCCGAUCCAAAUAUGCUUCUUUGCGAAAAGACAGCUUACUGAAA | 0.0885 |
| GAUGUCUCAUCCAUCUACCGAGUCCCCUUGUUGUUAGAGGAGCAAGGGGUUGUAGAUUAUUUUCUUCGAAGACUUGACCUUCCUAUUGAGAGGCAGCCAAGAAAAAUGCUGAUGAAAUGG | 0.263 |
| AAGGAUUAAGCCUGAGAACUGUGUAAAUCAUUAAGCUAUGCUCUUUGUGUAUGGAGGUUGCAAAAAAAGGCACCUCCUUUAGACUGAAUCUUUUGUGCUGAAAUUUUUCUUACAUGAUGA | 0.203 |
| AGCAAAAAAGCAGAAAUCCCAAUUAACAAGACACACAAGCAACAGUUUAAUAAACUCAUUACCAGCCAGGCUGCGCAAGUUACAACUCAUUCUAAAAAUGCUUCACUCGGGGUUCCAAGA | 0.354 |
| CUCGGCACUGGUACCCUUUACAUCGCUGAGAGCCGCCUGUCUUGGUUAGAUGGCUCUGGAUUAGGAUUCUCACUGGAAUACCCCACCAUUAGUUUACAUGCAUUAUCCAGGGACCGAAGU | 3.77 |

Excerpt of the above (set 4):
| Strand | bound/input enrichment [ratio] |
| --- | --- |
| GUGACCCGGUCUCUGGACACUGUCAAUGGAAGGAUGGUUCUGCCCGUUGAUGAAAGCUUGACUGAGGCCUUGGGAAUCCGAUCCAAAUAUGCUUCUUUGCGAAAAGACAGCUUACUGAAA | 0.0885 |
| AGCAAAAAAGCAGAAAUCCCAAUUAACAAGACACACAAGCAACAGUUUAAUAAACUCAUUACCAGCCAGGCUGCGCAAGUUACAACUCAUUCUAAAAAUGCUUCACUCGGGGUUCCAAGA | 0.354 |
| AAGGAUUAAGCCUGAGAACUGUGUAAAUCAUUAAGCUAUGCUCUUUGUGUAUGGAGGUUGCAAAAAAAGGCACCUCCUUUAGACUGAAUCUUUUGUGCUGAAAUUUUUCUUACAUGAUGA | 0.203 |
| UUUUCUGUAUUAAGCAAAUUCUAAUUUUUAUAUGUGGUUUUUGACUGUGGGGGUUGUCUCUAUAGUUUGUCUUACUGUUGAAAUGACAUGGUUAUCCAAAGCCUCUAGUGUCCGUCAGGU | 2.33 |
| GGAACUGAUAUAUUGACAGUUCUCACCGAAGUCCUUUUAUAAAGAAUUGCUACUCCAAUAUAUGGUCAGAUUAGAUGCAAGAAUAAAGCAGUUGUCCGAGUCUAAGUUUCUAUUUUAUUA | 0.843 |
| UUGGGCCUCAGCCCUGGCACCAGCUCUGGCCGCAACCCUGACCCUGGCUCUGGGCCGGGCACUCUGCCGGAUCCCAGCUCCAAACCCCUCCCCGGCUCCAGAUCCACCCCCAGCCCUACU | 0.274 |
| GAUGUCUCAUCCAUCUACCGAGUCCCCUUGUUGUUAGAGGAGCAAGGGGUUGUAGAUUAUUUUCUUCGAAGACUUGACCUUCCUAUUGAGAGGCAGCCAAGAAAAAUGCUGAUGAAAUGG | 0.263 |
